Results from different studies.
Each numbered part is a random draw from the data of one study; scales do not carry over between parts. Substitutions count along the parent as printed.

Set 1
Target: Histone acetyltransferase KAT6A, both winged helices, GST fusion (KAT6A, Homo sapiens, UniProt Q92794, residues 1-181)
Method: protein binding microarray
Molecule type: double-stranded DNA, one strand shown
Sample: in vitro
Concentration: not given
Notes: 8-mer, flanks averaged, mean of 2 arrays, mostly near background
Relative to: not given
Direction: higher = stronger binding
Construct (chain): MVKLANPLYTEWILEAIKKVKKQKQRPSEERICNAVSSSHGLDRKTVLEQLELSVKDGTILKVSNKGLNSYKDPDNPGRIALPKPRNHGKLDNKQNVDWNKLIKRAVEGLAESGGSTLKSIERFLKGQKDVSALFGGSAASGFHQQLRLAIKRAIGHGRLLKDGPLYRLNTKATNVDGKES
Oligonucleotide | E-score
AACGCTCT | 0.012
CGTCGCAG | 0.256
CTTGATGC | -0.0652
AACTTGTG | -0.132
CTGGACGA | -0.12
ATTCAAGC | 0.0917
AGTAGGAG | -0.248
CTAGTAGA | -0.152
TGGTTAAA | 0.013
ACTCCATC | -0.0795
GTACTCGA | -0.0563
AGCCCCCG | 0.135
CCTTTCAC | -0.0351
CAGCATCG | -0.0519
TCCTCCCA | -0.0182
TAGTAAGA | -0.088
CCAGGGGA | -0.215
ACTGGAAG | -0.154
AACACCAC | -0.0218
GCGGCACC | 0.283
AAATGTGC | 0.0597
CTCTTGTA | -0.205

Set 2
Target: Sal-like protein 4, full length isoform A (SALL4, Homo sapiens, UniProt Q9UJQ4, residues 1-1053)
Chain of UniProt Q9UJQ4 (whole entry, looked up): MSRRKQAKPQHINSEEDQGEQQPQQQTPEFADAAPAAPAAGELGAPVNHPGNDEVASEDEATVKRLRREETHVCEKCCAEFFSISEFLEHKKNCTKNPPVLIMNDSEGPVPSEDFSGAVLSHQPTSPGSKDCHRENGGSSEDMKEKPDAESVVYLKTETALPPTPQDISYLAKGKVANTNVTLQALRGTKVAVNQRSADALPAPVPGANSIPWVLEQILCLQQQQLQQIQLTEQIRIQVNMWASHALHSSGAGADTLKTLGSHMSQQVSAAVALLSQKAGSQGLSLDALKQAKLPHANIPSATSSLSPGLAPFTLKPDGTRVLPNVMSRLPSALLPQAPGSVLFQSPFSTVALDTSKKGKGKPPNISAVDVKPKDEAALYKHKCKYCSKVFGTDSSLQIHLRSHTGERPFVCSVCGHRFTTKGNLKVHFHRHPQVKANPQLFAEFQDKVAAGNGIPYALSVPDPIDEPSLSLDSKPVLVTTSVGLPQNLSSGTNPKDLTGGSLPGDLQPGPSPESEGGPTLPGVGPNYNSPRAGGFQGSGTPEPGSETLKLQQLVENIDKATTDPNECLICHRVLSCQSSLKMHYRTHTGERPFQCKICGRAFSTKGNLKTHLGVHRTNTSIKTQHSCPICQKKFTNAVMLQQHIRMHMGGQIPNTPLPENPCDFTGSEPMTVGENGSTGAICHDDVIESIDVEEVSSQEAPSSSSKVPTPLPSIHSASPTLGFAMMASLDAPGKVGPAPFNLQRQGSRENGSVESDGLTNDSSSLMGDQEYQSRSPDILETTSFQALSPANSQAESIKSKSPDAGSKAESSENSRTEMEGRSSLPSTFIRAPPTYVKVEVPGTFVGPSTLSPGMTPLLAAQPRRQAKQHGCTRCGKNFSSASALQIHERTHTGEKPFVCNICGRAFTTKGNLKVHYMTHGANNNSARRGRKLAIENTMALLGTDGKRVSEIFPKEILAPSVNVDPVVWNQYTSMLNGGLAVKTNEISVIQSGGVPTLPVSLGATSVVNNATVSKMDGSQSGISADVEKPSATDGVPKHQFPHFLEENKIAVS
Method: universal PBM
Molecule type: double-stranded DNA, one strand shown
Sample: in vitro
Concentration: 600 nM
Notes: 8-mer, flanks averaged, mean of replicates
Direction: higher = stronger binding
Oligonucleotide | E-score
CCACGATC | 0.00823
CAGTCTGC | -0.206
CCTTGGCC | -0.298
CATTACAC | 0.191
CTAATTAG | 0.209
TGCTGCCA | -0.107
CTTCCAGC | -0.285
AGGCAACA | -0.139
CCCGTAGA | -0.217
CAGTTCGC | 0.057
ACGAAAGA | 0.168
CGTTCTCC | -0.0625
TCGAGCAA | -0.0536
CGGGTGGC | -0.371
GTGTGATA | 0.236
AGACAACC | -0.07
CCTCTGCG | -0.338
CAGGCCAC | -0.3
ACAAGTAC | 0.08
CCCGGTGC | -0.375
GGATCCCA | -0.208
ACGGGGAA | -0.0632
ACGAAACT | 0.0167
AAGCATAC | 0.279
AATGGAAC | 0.00436

Set 3
Target: CCND2, cyclin fold, Cln2 fusion (human)
Method: yeast growth competition, sequencing
Sample: yeast
Notes: weak parent motif
Relative to: not given
Direction: higher = stronger binding
Parent: CENPC docking peptide (human); VKTKKRLNFDDKV
Substitution | normalised enrichment score
K5A L7A | 0.283
N8A | 0.51
K4A | 0.248
D11A | 0.111
K2A | 0.505
R6A | 0.277
D10A | -0.304
K5R F9L | -0.00917
F9L | -0.0502
F9A | -0.0794

Set 4
Target: RING finger protein unkempt homolog, zinc fingers 1-6, GST-SBP tag (UNK, Homo sapiens, UniProt Q9C0B0, residues 30-357)
Chain of UniProt Q9C0B0 (30-357, looked up): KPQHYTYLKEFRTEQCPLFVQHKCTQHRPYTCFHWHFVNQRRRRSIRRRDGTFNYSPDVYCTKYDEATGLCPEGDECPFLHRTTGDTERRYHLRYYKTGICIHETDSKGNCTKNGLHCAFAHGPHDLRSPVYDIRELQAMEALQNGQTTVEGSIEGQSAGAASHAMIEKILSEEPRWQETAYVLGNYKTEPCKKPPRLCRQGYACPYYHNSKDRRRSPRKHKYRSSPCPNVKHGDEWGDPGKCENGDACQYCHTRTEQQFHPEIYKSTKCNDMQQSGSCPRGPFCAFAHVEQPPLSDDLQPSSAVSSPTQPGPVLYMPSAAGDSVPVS
Method: RNA Bind-n-Seq
Molecule type: RNA
Sample: in vitro
Concentration: not given
Notes: RNA with constant flanks, human and mouse sites, ends assumed
Relative to: input RNA pool
Direction: higher = stronger binding
All sequences stand within: GGGAGUUCUACAGUCCGACGAUC … CAACAGAGGAUUGAGCAUCA
Oligonucleotide | bound/input enrichment
CGAGCAGUGGAGUGUUGUGUGAGGUUGCUUCAUGUGCGAAAUGGAAAUUGUAAAUAUCAUCUAGGUGAAGAAACAUUUAAAUUAGCUCAGACAUACAUGGAUAAGCUGUCUAAACAUGGC | 0.485 ratio
UUUUUGCUUCCUUGUGGACAACUGAGAGUUGCUGUGGCUUGUGUGUGUGUGUGUGUGUGUGUGUGUGUGUGUGUGUGUGUGUAGUGGAAAUGUCACUAUGUUCCUGUCAUUUGUGGCUCA | 0.888 ratio
UGUGUCUUACGUGCCACCACGGCGUUGUACCUGUAGGACUCUCAUUCGGGAUGAUUGGAAUAGCUUCUGGAAUUUGUUCAAGUUUUGGGUAUGUUUAAUCUGUUAUGUACUAGUGUUCUG | 0.78 ratio
AAAAACUUGGCCCUUAUGACACACAUCACAACUGAUAUGGAAGAUGGACCCAUUGUUAAAUUAGCCAGUAACUUGGGAGUAGAAGAUGUGAAUUUAUUAUGUGGGGAAGAGCUCUCUUAC | 0.401 ratio
CUUGUAAUUCUCACCAUCAUGGCCACCCUGAAAAUCAGGAACUCCAACUUCUACACGGUGGCAGUGACCAGCCUGUCCAGCCAGAUUCAGUACAUGAACACAGUGGUGAAUUUUACCGGG | 0.197 ratio
UGCCUUGUUUUGUGUGUUCUAAAUACUUUUUUUAAUGAAAAAAUGUUUUUUGGUUUUAAUGGUGUUACGUGGUUUGUGUAUUAAUUUUUUUUCUUGUCCAUAUCACACCACCAAAGGCUU | 0.289 ratio
CUGGAGACUAAACUCAAAGCUUCUGAAGAAGAAAAGCAGAGAAUUAAAAAGGAUGUGGAGUCACUGAUGGAGAAACACAGUGUCCUGGAGAAAGGCUUCUUGAAGGAAAAGGAGCAGGAU | 0.187 ratio
ACGAUCGGGGCCUACAUCAACACAACGCACUCACGGCUCACACACAUCAGUCCUCGGCACUAUAGUGAGUUUAUAGAGUUCCUCAGCAAAGCCCGAGAGACCUUCUUAAUGGCGCAUGAU | 0.335 ratio
GAACACCACACUGGUAAAGGUGAAAAAUGUUUUUCAGAGAGGGACUUUUCACCCCUUCAAACUCAAACAUUUAAUAGAGAAACAACUAUAAAAUGUUAUUCAACUCAGAUGAAGAUGGAA | 0.279 ratio
AACUUCUUUGUCCGUUCUACUGAUUUGUUAUCCCUUGCCAACAUCAAUCCUGAUGCUGGAUUUGCGGUGCAGUUGUCAAUUGAAGAAAGUUUAACAGAUACUUCCUUAGUAUGUUUUCAA | 1.26 ratio
UUCGUGCAGUUUGCUUCACAGGAAAUAGCUGAAAAGGCUCUAAAGAAACACAAGGAAAGAAUAGGGCACAGGUAUAUUGAAAUAUUUAAGAGCAGUCGAGCUGAAGUUAGAACUCAUUAU | 0.61 ratio

Set 5
Target: Fragile X messenger ribonucleoprotein 1, C-terminal low-complexity region (Fmr1, Mus musculus, UniProt P35922)
Method: RNA Bind-n-Seq
Molecule type: RNA
Sample: in vitro
Concentration: 200 nM
Notes: whole 134-nt RNA, ends assumed
Together with: 150 mM KCl
Relative to: input library
Direction: higher = stronger binding
All sequences stand within: GGGAGUUCUACAGUCCGACGAUC … UGGAAUUCUCGGGUGUCAAGG
Oligonucleotide | log2 enrichment
CCUCAAGUCCUGUGCUACACAUCGUAUGUACCGAAUCGGAAGGGAAGGAAGGAAAGUAUUAUGUUACGCCGUUCGGAUCUGCACUUCCAG | 0.0791
ACCAUGCAGGUGGGCAUCUUUGGGAAGUGGGGCAAGGGGGGGAUAGGGAAGGGGGUAACACUUUGGGAACAGGUGGUCCCAGGUCGUUUC | 0.558
GUCCUGUGCUACACAUCGUAUGUACCGAAUCAAACCCAAACCCCCCCAAACCCCCAAAAAAGUAUUAUGUUACGCCGUUCGGAUCUGCAC | -0.128
GUCCUGUGCUACACAUCGUAUGUACCGAAUCGGGAGGGUUUUUUUGGGAAAAAAAGGGAAAGUAUUAUGUUACGCCGUUCGGAUCUGCAC | -0.215
AGUCCUGUGCUACACAUCGUAUGUACCGAAUCGGGUUUUGGGGUUUUGGGGUUUUGGGAAAGUAUUAUGUUACGCCGUUCGGAUCUGCAC | 0.489
UCCUCAAGUCCUGUGCUACACAUCGUAUGUACCGAAUCGGUGGUGGGGUGGAAAGUAUUAUGUUACGCCGUUCGGAUCUGCACUUCCAGC | -0.0925
UCCUGUGCUACACAUCGUAUGUACCGAAUCGGGGUUUGGGGUUUGGGGAAAAAAAGGGGAAAGUAUUAUGUUACGCCGUUCGGAUCUGCA | 0.526
UUUUCAAGGGCCGCUUGAAGAUGCCAUUGAAGAUGAGGAAGAAGAAUGUCCAUCAGAGGAAACAGACAUCAUCUCCAAAGGAGACUUUCC | -1.55
CAAGUCCUGUGCUACACAUCGUAUGUACCGAAUCGGGGCCCGGCCCGGGGCCCGGGAAAGUAUUAUGUUACGCCGUUCGGAUCUGCACUU | -0.824
UUACACCAAUGAGAAGCUGCAGCAGCUCUUCAACCACACCAUGUUCAUCCUGGAGCAGGAGGAGUACCAGCGCGAGGGCAUCGAGUGGAA | -0.67
UGGGAGGUGGAUUUUGUUUAUUUUUUUAGCUCAUUUCCAGGGGUGGGAAUUUUUUUUUAAUAUGUGUCAUGAAUAAAGUUGUUUUUAAAA | 0.288
AGUCCUGUGCUACACAUCGUAUGUACCGAAUCGGGAAAAGGGAAAAGGGAAAAGGGGAAAGUAUUAUGUUACGCCGUUCGGAUCUGCACU | 0.298
UCUCCCAUCAAAGGACGUGCACAGCCUUAUGAUCCCAAUUUUUACGAUGAAACCUAUGAUUAUGGUGGUUUUACAAUGAUGUUUGAUGAC | 1.09
UGCCUGGCCCAGUGCUGGGUUUGCCUUGUUGACGAUGCGCUUGGAUUGUUAAGGACACCGAUGUUCAGAACCCGGGAAGAGUCAUCUUAA | -1.97

For quick reference, copied from above (set 5):
Oligonucleotide | log2 enrichment
UCUCCCAUCAAAGGACGUGCACAGCCUUAUGAUCCCAAUUUUUACGAUGAAACCUAUGAUUAUGGUGGUUUUACAAUGAUGUUUGAUGAC | 1.09
UUUUCAAGGGCCGCUUGAAGAUGCCAUUGAAGAUGAGGAAGAAGAAUGUCCAUCAGAGGAAACAGACAUCAUCUCCAAAGGAGACUUUCC | -1.55
UCCUGUGCUACACAUCGUAUGUACCGAAUCGGGGUUUGGGGUUUGGGGAAAAAAAGGGGAAAGUAUUAUGUUACGCCGUUCGGAUCUGCA | 0.526
CAAGUCCUGUGCUACACAUCGUAUGUACCGAAUCGGGGCCCGGCCCGGGGCCCGGGAAAGUAUUAUGUUACGCCGUUCGGAUCUGCACUU | -0.824
UGCCUGGCCCAGUGCUGGGUUUGCCUUGUUGACGAUGCGCUUGGAUUGUUAAGGACACCGAUGUUCAGAACCCGGGAAGAGUCAUCUUAA | -1.97
CCUCAAGUCCUGUGCUACACAUCGUAUGUACCGAAUCGGAAGGGAAGGAAGGAAAGUAUUAUGUUACGCCGUUCGGAUCUGCACUUCCAG | 0.0791
GUCCUGUGCUACACAUCGUAUGUACCGAAUCAAACCCAAACCCCCCCAAACCCCCAAAAAAGUAUUAUGUUACGCCGUUCGGAUCUGCAC | -0.128
ACCAUGCAGGUGGGCAUCUUUGGGAAGUGGGGCAAGGGGGGGAUAGGGAAGGGGGUAACACUUUGGGAACAGGUGGUCCCAGGUCGUUUC | 0.558
UGGGAGGUGGAUUUUGUUUAUUUUUUUAGCUCAUUUCCAGGGGUGGGAAUUUUUUUUUAAUAUGUGUCAUGAAUAAAGUUGUUUUUAAAA | 0.288
